Experimental data pooled from the literature.
Every numbered part comes from another study and shows a few of its results, in no order. Positions count from the first letter of the parent shown.

Set 1 — target: CCNB1, cyclin fold, Cln2 fusion (human); technique: yeast growth competition, sequencing; sample: yeast; notes: weak parent motif; relative to: not given; reading: higher = stronger binding
Parent: RBL1 docking peptide (human); GSAKRRLFGEDPP
Variant	normalised enrichment score
G9C	0.959
L7K	1.23
G9Y	1.42
R5V	0.232
A3T	0.714
G1F	2.36
K4G	0.151
F8T	-0.0283
P12E	1.78
D11A	0.447
K4P	0.0497
R5E	-0.0218
L7C	1.09
R5F	0.378
E10Q	0.123
S2E	0.773
R5T	-0.115
R5D	-0.0463
A3F	1.64
G9E	0.413

Set 2 — technique: DHFR PCA, dose-response; sample: yeast; notes: Hill fit, mean, not affinity; together with: (+)-ABA, dose series; reading: lower = more sensitive
Target: ABI1, truncated, D143A, DHFR fusion (Arabidopsis thaliana, UniProt P49597)
Parent: PYL1, truncated, DHFR fusion (Arabidopsis thaliana, UniProt Q8VZS8); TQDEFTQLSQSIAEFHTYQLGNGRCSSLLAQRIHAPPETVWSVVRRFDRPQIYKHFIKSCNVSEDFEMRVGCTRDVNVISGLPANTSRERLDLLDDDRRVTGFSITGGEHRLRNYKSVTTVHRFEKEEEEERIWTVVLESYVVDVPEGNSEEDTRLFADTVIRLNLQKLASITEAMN
Variant	ABA EC50
E129K	2.04 µM
Q167L	2.01 µM
D159N	1.21 µM
V43K	78.9 µM
E139H	14.7 µM
R45I	352 µM
C72R	25.4 µM
L93T	4.4 µM
R99I	535 µM
V70L	11.4 µM
R111W	300 µM
D3R	3.75 µM
Q167K	0.645 µM
N114W	578 µM
E147S	3.09 µM
D92I	63.2 µM
F47W	27.8 µM
E152M	4.43 µM
G23E	10.3 µM
E14T	4.25 µM
D48C	134 µM

Set 3 — technique: RNA Bind-n-Seq; form: RNA; sample: in vitro; concentration: 1 µM; notes: whole 134-nt RNA, ends assumed; together with: 150 mM KCl; relative to: input library; reading: higher = stronger binding
Target: Ras GTPase-activating protein-binding protein 1, RRM domain (G3BP1, Homo sapiens, UniProt Q13283)
Sequence of UniProt Q13283 (whole entry, looked up): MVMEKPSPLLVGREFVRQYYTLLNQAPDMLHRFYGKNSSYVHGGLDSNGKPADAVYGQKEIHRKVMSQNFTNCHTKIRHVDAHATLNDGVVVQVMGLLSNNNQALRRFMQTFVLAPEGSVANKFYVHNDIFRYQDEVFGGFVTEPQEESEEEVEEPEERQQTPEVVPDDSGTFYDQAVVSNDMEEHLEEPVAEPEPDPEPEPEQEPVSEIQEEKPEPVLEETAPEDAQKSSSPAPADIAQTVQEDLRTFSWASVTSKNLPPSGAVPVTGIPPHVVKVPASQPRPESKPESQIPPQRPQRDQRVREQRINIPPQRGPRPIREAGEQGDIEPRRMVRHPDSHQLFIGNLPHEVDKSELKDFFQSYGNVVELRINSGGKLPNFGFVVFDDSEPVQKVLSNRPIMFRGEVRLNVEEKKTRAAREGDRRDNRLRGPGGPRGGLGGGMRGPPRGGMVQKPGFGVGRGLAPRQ
Shared flanks, not repeated: GGGAGUUCUACAGUCCGACGAUC … UGGAAUUCUCGGGUGUCAAGG
Sequence	log2 enrichment
GCAGGAAGUAAAAACAAAUGGAAAUGCUUCGGAUAGUGGCAGGGGUGGGGGUUGCUAAGGAAAGGGUGGGAUGGGAGUGGGUAAAGAUUU	0.681
UCCUGUGCUACACAUCGUAUGUACCGAAUCGGUUUUUUUGGUUUUUUUGGUUUUUUUGGAAAGUAUUAUGUUACGCCGUUCGGAUCUGCA	-0.0918
ACCAUGCAGGUAGGCAUCUUUGGGAAGUGGGGCAAGGGGGGGAUAGGGAGGGGGGUAACACUUUGGGAACAGGUGGUCCCAGGUCGUUUC	-0.456
AAGUCCUGUGCUACACAUCGUAUGUACCGAAUCGGGGAAAAGGAAAAGGGGAAAAGGAAAGUAUUAUGUUACGCCGUUCGGAUCUGCACU	-0.12
CAAGUCCUGUGCUACACAUCGUAUGUACCGAAUCGGGGCCGGGGCCGGGGCCGGGGAAAGUAUUAUGUUACGCCGUUCGGAUCUGCACUU	-1.45
CUCAAGUCCUGUGCUACACAUCGUAUGUACCGAAUCGGGUUGGGGUUGGUUGGGAAAGUAUUAUGUUACGCCGUUCGGAUCUGCACUUCC	-0.0178
UCCUCAAGUCCUGUGCUACACAUCGUAUGUACCGAAUCGGAGGUUUGGAGGAAAGUAUUAUGUUACGCCGUUCGGAUCUGCACUUCCAGC	-0.275
GCAGGAAGUAAAAACAAAUGGAAAUGCUUCGGAUAGUGGCAGGGGUGGGGGUUGCUAAGGAAAGGGAGGGAUGGGAGUGGGUAAAGAGUU	1.15
AGUCCUGUGCUACACAUCGUAUGUACCGAAUCGGGAAAAAGGGUUUUUGGGUUUGGGAAAGUAUUAUGUUACGCCGUUCGGAUCUGCACU	0.218
CACAGACAACACGCACCCACACAUACACAGAGGGAAGGGGUUGGGAUGGGGACAGGGUGCACAGCAGGGCGGGGUAGGACCCCAGCCCCU	-0.0395
AAGUCCUGUGCUACACAUCGUAUGUACCGAAUCGGGGUGGGGUGGGGAAAAAGGGGAAAGUAUUAUGUUACGCCGUUCGGAUCUGCACUU	0.503
CACAGACAACACGCACCCACACAGACACAGAGGGAAGGGGUUGGGAUGGGGACAGGGUGCACAGCAGGGCGGGGUAGGACCAAAGCCCCU	-0.228
CUCAAGUCCUGUGCUACACAUCGUAUGUACCGAAUCGGUUGGGGUUGGUUGGGGAAAGUAUUAUGUUACGCCGUUCGGAUCUGCACUUCC	0.184
UGGGAGGUGGAUUUUGUUUAUUUUUUUAGCUCAUUUCCAGGGGUGGGAAUUUUUUUUUAAUAUGUGUCAUGAAUAAAGUUGUUUUUUAAA	2.12

Set 4 — technique: RNA Bind-n-Seq; form: RNA; sample: in vitro; concentration: 365 nM; relative to: no-protein control; reading: higher = stronger binding
Target: RNA binding protein fox-1 homolog 2, RRM domain, GST-SBP tag (RBFOX2, Homo sapiens, UniProt O43251-10, residues 100-194)
Notes: natural RNA segment, single round, ends assumed
Shared flanks, not repeated: GGGAGUUCUACAGUCCGACGAUC … UGGAAUUCUCGGGUGCCAA
Target sequence (chain): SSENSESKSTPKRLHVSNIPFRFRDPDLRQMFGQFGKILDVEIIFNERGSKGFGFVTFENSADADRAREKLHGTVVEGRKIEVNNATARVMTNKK
Sequence	RBNS enrichment (R)
CAGUAGGUCUUGUGCAGUGUCACUUGUAGUUGCAUGGUUACAGCGUGCUGAGUUUGACCAUUACAUUCAAAACUAAAACCUGUGUAGGAAGGUUAAGGUCGUGGCAGCAG	6.36
GCUUAUUCCGUGUAGAUGCUUGUUUUUGUCCCUGCCUCCGAGGAACUUGUUCAUGAUUGUGCUCUGAACUGCAUGGGGAGUGUGGGGUGCUGCCUUGCUCGCUGUUAUAU	28.3
AAAAGUGUAUAAUCUGAUACUCUAGCCCAACUGAAAUAUUAUAUCUUGGGCGUUACAGCCUUUGUCUUUUUCUUUAGUCACCUUAAUACCCAGUCCUAUGCUGUAUCUCU	0.569
GUCUUUGUGGAUUAGGAUGGGGGUGACAUAAUUUUCUUGAGUUUAACAGGAGUGCUUUACCCAAGUCAGUCAUGGAUAUGAUAUCACUGCUCUUUAUUUAAAAGUAAACU	0.694
UUGUCUAAGCAGAGCGCCUCAGGGACGCUGGAAAUGCCUUAAGGAUAGAGGCUGGGCAUCACAUCAAAUGGGACUGUGGUGUUUGGUGAAAACCUUCCUGAGGAUCUGGA	0.356
GUGUACACCCUCACCCGCUGCUGUCCUGCCCUCUGCCAGUGGCCCCAUCAACCCAGGCCUGGUCUUUCCCUCUCCUGCUGAGAACCAGAACCCACCAGGAGCAGCAGAGU	0.363
UUGGCAGUAAAUUGGCACCGUGUCACACUGUUUCCUGGGAUUCAAGUAUGCAACCAGAACACAGGAGAAGAAAAGCUCCAGGAUCCCUGUCCCCAUCUGUCCUCUUGAUG	2.51
UCACAUUAAAAAAUGAAAUAUUUUUUAAUUUAAAGCUUACUCUGUCCAUUUAUCCACAGGAAAGUGUUAUUUUUCAAGGAAGGUUCAUGUAGAGAAAAGCACACUUGUAG	0.375
CCCCCUCGCUAGCCAUUUGGGGGUGGCAAGGGGGUGUGGUUGUUUCUCGUGGUUGUGUGUGUUUGUUGUUCGGGUUUUUAAAAGGGGAAAUUGAGACUGCAAGUGGGGGA	3.96
UCCCUCGGAGGACAUCGUCUGUGUCCAGGUCAGAAAGUGGCCCAGGAAGGGGGCAGUUUCUGUCGCGGGUCCGGUGGGGGCGCGGCCGCGGUGCGGUCGGUGCAGCGUGG	0.864
CCCUCGCCCAGGCCGGGGCUGGAGGGAUUCGGCCGCGGCUCCGGUCCUGGGCGCUUCCCUUUUAAGCAAGGGCGCCUCACCUGCUCUUCAAGAAACAGCGAGAGGGAGAC	0.346
AUUUUUAAGCUUCUACAGAUAUGGUCCUAGAGACUGGGGUCCUCAGACACUCCCGCUGUAUGUGGUGAGCUUGGCUGGAAACUUGCCAUAGCCAGGACUGAGGGGCUGGC	1.83

Set 5 — technique: RNA Bind-n-Seq; form: RNA; sample: in vitro; concentration: 15 pmol; notes: 4-mer, random 30-nt RNA, single round; together with: DMSO vehicle, 2 mM AMP-PNP; relative to: input library; reading: higher = stronger binding
Target: Eukaryotic initiation factor 4A-I (EIF4A1, Homo sapiens, UniProt P60842, residues 1-406, full length assumed)
Sequence of UniProt P60842 (whole entry, looked up): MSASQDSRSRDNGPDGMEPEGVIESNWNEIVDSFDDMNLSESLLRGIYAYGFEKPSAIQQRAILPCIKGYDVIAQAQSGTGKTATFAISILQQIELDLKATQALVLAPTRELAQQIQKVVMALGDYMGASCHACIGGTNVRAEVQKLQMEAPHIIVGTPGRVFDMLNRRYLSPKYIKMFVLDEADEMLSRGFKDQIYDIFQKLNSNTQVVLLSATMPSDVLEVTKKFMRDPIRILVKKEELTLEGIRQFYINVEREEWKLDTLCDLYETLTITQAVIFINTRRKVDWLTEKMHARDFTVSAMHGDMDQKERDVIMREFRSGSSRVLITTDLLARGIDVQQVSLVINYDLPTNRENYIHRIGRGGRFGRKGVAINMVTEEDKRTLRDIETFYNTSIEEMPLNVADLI
Sequence	4-mer enrichment
UAAC	1.2 fold
GAGA	1.02 fold
UUUG	0.864 fold
AUGC	1.09 fold
AGAA	1.33 fold
ACCC	1.84 fold
UUCU	1.06 fold
UGGA	1.05 fold
UCCC	1.36 fold
CCGG	0.821 fold
GUUC	0.911 fold
AGCC	1.26 fold
UAUU	0.845 fold
UAGC	0.653 fold
UCGC	0.802 fold
CCCG	1.14 fold
UGUU	0.814 fold
GUGU	0.801 fold
CUUA	0.85 fold
AGUG	0.849 fold
CCAC	1.76 fold
UGGU	1.01 fold
AGCU	0.944 fold
CCAA	2.01 fold
GCUG	1.2 fold

A few entries again (set 1):
Variant	normalised enrichment score
F8T	-0.0283
E10Q	0.123
G9Y	1.42
G9C	0.959
R5E	-0.0218
